Assay results collected from several papers.
Protocols differ between the studies behind these lines. Several values in a cell are separate wells, animals, samples, runs or records. ± marks the error that the study gave.
RIPK1: Receptor-interacting serine/threonine-protein kinase 1 (RIPK1, Homo sapiens, UniProt Q13546)
UniProt Q13546, sequence (whole entry, looked up): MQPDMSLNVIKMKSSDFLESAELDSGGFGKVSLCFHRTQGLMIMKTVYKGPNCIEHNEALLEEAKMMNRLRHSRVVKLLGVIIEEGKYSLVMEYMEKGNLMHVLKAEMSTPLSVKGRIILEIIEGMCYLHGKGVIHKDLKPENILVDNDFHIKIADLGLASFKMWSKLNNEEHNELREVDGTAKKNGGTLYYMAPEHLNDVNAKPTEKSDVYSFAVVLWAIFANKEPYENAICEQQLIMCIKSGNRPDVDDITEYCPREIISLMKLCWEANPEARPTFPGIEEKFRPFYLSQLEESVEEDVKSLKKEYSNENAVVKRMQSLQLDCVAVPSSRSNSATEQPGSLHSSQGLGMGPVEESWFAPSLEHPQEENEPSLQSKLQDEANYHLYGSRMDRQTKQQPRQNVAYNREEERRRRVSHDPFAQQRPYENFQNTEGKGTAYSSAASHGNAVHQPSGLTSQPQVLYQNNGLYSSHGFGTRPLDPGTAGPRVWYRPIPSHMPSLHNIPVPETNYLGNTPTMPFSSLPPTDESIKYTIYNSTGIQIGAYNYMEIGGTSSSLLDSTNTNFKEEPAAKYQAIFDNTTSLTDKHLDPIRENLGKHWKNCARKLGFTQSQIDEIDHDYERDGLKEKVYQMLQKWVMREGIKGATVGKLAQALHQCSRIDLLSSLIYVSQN
MAOB: Amine oxidase [flavin-containing] B (MAOB, Homo sapiens, UniProt P27338)
UniProt P27338, sequence (whole entry, looked up): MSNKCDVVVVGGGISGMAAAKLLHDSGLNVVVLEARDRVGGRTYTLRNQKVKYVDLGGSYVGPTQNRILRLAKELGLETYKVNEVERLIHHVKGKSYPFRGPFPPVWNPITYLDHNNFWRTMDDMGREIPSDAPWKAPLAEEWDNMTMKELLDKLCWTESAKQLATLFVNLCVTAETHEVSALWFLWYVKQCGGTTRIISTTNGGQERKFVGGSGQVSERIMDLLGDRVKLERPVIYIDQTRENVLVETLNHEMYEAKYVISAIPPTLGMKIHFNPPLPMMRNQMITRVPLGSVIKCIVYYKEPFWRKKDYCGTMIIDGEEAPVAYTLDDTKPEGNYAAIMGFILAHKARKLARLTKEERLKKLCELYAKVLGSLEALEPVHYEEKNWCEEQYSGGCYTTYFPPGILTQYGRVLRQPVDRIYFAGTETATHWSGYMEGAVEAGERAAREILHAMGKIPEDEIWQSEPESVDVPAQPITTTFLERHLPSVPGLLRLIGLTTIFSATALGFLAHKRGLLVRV
UniProt Q96KQ7, sequence (whole entry, looked up): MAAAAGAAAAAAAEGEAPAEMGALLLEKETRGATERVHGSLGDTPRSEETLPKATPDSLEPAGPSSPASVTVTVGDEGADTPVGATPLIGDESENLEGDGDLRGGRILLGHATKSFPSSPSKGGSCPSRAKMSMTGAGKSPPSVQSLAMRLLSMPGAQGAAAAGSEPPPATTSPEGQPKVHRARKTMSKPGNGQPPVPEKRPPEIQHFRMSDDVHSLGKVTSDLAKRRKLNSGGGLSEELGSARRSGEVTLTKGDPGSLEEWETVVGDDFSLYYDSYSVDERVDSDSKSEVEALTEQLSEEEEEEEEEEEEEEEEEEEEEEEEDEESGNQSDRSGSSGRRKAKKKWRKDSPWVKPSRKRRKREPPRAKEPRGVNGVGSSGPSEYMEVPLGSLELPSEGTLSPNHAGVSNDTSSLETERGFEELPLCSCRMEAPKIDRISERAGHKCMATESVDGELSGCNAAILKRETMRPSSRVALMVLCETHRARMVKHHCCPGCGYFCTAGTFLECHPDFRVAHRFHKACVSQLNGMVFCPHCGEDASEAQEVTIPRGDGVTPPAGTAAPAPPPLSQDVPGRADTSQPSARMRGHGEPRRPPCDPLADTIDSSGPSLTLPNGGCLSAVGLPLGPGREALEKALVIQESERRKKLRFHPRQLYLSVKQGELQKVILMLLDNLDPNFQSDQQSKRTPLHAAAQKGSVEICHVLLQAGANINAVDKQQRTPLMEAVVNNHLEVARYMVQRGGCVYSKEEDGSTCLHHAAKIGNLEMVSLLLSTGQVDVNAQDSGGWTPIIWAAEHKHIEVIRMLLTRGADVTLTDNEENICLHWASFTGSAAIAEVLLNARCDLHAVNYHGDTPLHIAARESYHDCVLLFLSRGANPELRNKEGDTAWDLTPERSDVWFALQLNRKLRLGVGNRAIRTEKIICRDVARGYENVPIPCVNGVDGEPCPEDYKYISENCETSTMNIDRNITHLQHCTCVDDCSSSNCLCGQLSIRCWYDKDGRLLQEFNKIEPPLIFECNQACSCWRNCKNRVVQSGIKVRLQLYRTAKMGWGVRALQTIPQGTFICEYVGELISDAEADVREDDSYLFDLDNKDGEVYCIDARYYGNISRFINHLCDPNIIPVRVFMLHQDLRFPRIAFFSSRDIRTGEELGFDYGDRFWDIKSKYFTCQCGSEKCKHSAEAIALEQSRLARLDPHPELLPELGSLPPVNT
UniProt Q8R431, sequence (whole entry, looked up): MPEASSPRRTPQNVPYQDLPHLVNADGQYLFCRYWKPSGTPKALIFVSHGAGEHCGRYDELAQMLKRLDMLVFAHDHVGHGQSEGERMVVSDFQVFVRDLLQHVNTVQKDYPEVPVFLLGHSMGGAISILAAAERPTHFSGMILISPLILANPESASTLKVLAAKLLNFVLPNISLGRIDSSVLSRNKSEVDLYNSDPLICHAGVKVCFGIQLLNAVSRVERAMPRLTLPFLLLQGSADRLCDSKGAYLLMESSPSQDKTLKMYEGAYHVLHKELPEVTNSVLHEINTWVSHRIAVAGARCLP
UniProt P26439, sequence (whole entry, looked up): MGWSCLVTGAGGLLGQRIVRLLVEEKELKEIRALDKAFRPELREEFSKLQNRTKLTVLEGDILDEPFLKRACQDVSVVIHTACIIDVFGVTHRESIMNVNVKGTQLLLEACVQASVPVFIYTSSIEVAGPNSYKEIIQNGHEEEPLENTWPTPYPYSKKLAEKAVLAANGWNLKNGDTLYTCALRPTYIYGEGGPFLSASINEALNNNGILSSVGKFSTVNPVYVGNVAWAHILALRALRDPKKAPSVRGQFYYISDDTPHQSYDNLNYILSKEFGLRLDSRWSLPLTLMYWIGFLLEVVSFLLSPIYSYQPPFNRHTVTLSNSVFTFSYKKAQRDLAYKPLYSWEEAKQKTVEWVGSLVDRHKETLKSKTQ
UniProt O75530, sequence (whole entry, looked up): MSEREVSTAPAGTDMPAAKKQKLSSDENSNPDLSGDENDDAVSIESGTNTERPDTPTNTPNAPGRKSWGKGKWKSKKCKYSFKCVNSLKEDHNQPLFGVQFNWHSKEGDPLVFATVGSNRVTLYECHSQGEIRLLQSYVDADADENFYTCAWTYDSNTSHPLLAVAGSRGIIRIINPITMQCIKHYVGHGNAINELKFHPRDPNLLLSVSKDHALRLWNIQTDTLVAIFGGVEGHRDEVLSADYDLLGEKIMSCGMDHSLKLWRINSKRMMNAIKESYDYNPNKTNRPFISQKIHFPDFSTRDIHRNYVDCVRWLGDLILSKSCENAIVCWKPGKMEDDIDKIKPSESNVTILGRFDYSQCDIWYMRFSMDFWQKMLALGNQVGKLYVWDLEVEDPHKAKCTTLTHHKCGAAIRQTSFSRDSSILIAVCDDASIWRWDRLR
UniProt P34914, sequence (whole entry, looked up): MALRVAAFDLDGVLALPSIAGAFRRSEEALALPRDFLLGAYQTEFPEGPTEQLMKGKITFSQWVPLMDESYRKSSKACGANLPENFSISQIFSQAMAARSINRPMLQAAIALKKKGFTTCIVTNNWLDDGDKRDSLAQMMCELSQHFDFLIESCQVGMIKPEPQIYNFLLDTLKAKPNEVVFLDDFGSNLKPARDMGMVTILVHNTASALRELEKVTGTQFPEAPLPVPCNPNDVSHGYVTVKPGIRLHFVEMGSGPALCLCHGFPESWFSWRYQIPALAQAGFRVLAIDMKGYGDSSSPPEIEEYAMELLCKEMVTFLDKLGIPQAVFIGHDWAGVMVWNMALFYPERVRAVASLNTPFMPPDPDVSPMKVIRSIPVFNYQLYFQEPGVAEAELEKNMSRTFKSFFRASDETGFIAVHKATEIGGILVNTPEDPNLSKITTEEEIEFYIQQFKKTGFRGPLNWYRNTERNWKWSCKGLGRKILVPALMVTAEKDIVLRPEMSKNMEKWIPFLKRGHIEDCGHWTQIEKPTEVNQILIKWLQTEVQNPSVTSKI
UniProt Q15910, sequence (whole entry, looked up): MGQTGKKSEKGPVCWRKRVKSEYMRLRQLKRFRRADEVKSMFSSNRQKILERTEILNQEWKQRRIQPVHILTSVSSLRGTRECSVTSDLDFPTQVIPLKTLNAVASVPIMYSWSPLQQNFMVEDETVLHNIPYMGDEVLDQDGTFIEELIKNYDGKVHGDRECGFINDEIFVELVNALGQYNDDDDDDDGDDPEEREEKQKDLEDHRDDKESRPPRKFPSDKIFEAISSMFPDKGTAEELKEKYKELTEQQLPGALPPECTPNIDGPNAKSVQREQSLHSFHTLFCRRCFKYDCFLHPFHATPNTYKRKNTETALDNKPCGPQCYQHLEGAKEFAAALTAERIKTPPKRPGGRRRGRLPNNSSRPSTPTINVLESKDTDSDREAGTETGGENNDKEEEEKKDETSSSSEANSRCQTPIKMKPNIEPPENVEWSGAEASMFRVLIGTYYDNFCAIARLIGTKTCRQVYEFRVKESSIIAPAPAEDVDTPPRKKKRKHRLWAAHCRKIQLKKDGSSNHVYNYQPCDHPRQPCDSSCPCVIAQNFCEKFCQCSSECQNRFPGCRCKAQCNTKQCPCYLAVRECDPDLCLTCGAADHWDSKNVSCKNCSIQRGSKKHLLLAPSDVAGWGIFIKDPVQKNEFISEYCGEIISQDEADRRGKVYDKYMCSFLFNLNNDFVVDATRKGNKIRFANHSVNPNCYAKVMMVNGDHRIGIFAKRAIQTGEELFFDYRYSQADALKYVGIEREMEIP

target	assay	system	conditions	scale	remaining activity	SMILES
RIPK1	enzyme activity		1 µM	reference: untreated	100 ± 4%	CC(C)NC(=O)N1CC=C(c2cc3c(Nc4cc5ncsc5cc4F)ncnc3s2)CC1
Monoglyceride lipase (Rattus norvegicus, UniProt Q8R431)	inhibitor	rat cerebellum cytosol	100 µM	reference: control	7 ± 1%	COc1cc2nnn(C(=O)N3COCC3(C)C)c2cc1OC
RIPK1	enzyme activity		1 µM	reference: untreated	95 ± 2%	O=C(C1CC1)N1CCC=C(c2cc3c(Nc4cc5ncsc5cc4F)ncnc3s2)C1
MAOB	enzyme activity, inhibitor		10 µM		40.4%	Cc1ccc2c(c1)/C(=N/N=C/c1ccc(OCc3ccccc3)cc1)C(=O)N2
EHMT2 (Homo sapiens, UniProt Q96KQ7)	enzyme activity		10 µM, together with: 1 µM SAM		96% and 99%	CC1(C)CCN(Cc2ccc(C(=O)NC[C@]3(O)CCCN(c4cc(NCc5ccccc5)ncn4)C3)c(O)c2)CC1
HSD3B2 (Homo sapiens, UniProt P26439)	inhibitor	KGN homogenate	100 µM, together with: pregnenolone substrate	reference: DMSO	≥ 50%	COc1cc(/C=C/C(=O)CC(=O)CCc2ccc(O)c(OC)c2)ccc1O
Histone-lysine N-methyltransferase EZH2/Polycomb protein EED, with SUZ12 (EED/EZH2, Homo sapiens, UniProt O75530+Q15910)	PRC2 methyltransferase activity, [3H]-SAM scintillation proximity		concentration not given, together with: 50 µM histone H3 peptide (21-44)		577 ± 1.9%	C[C@H](NC(=O)[C@H](C)NC(=O)[C@@H](N)CCCCN)C(=O)N[C@@H](CCCNC(=N)N)C(=O)N[C@@H](CCCC[N+](C)(C)C)C(=O)N[C@@H](CO)C(=O)N[C@@H](C)C(=O)N1CCC[C@H]1C(=O)O
RIPK1	enzyme activity		1 µM	reference: untreated	105 ± 3%	CCC(=O)NC1CC=C(c2cc3c(Nc4cc5ncsc5cc4F)ncnc3s2)CC1 (racemic)
MAOB	enzyme activity, inhibitor		10 µM		64.9%	O=C1Nc2ccc(Br)cc2/C1=N/N=C/c1ccc(OCc2ccccc2)cc1
RIPK1	enzyme activity		1 µM	reference: untreated	100 ± 3%	O=C(NC1CC1)N1CCC=C(c2cc3c(Nc4cc5ncsc5cc4F)ncnc3s2)C1
MAOB	enzyme activity, inhibitor		10 µM		66.7%	COc1ccc2c(c1)/C(=N/N=C/c1ccc(OCc3ccccc3)cc1)C(=O)N2
Ephx2 (Mus musculus, UniProt P34914)		mouse, brain	ip, 10 mg/kg, 4 h	reference: vehicle	61 ± 12%	O=C(Nc1ccc(OC(F)(F)F)cc1)N1CCC(Cc2cccc(Oc3ccc(C(F)(F)F)cn3)c2)CC1
ALOX5 (Homo sapiens, UniProt P09917)	product formation	activated human PMNL	10 µM, together with: A23187 plus arachidonic acid	reference: control	89.2 ± 6.7%	O=C1CC(c2ccc(O)cc2)Oc2cc(O)ccc21 (racemic)
MAOB	enzyme activity, inhibitor		10 µM		39.1%	Cc1ccc2c(c1)/C(=N/N=C/c1cccc(OCc3ccccc3)c1)C(=O)N2

Repeated from above:
target	assay	system	conditions	scale	remaining activity	SMILES
Histone-lysine N-methyltransferase EZH2/Polycomb protein EED, with SUZ12 (EED/EZH2, Homo sapiens, UniProt O75530+Q15910)	PRC2 methyltransferase activity, [3H]-SAM scintillation proximity		concentration not given, together with: 50 µM histone H3 peptide (21-44)		577 ± 1.9%	C[C@H](NC(=O)[C@H](C)NC(=O)[C@@H](N)CCCCN)C(=O)N[C@@H](CCCNC(=N)N)C(=O)N[C@@H](CCCC[N+](C)(C)C)C(=O)N[C@@H](CO)C(=O)N[C@@H](C)C(=O)N1CCC[C@H]1C(=O)O
RIPK1	enzyme activity		1 µM	reference: untreated	105 ± 3%	CCC(=O)NC1CC=C(c2cc3c(Nc4cc5ncsc5cc4F)ncnc3s2)CC1 (racemic)
